Measurements from different studies.
Each line is one published result; not all experiments were run side by side. ± gives the spread as reported.

O=C(O)C[C@H](NC(=O)[C@H](CC(=O)O)NC(=O)[C@H](CC(=O)O)NC(=O)[C@H](CC(=O)O)NC(=O)[C@H](CC(=O)O)NC(=O)[C@H](CC(=O)O)NC(=O)[C@H](CC(=O)O)NC(=O)[C@H](CC(=O)O)NC(=O)[C@H](CC(=O)O)NC(=O)[C@H](CC(=O)O)NC(=O)[C@H](CC(=O)O)NC(=O)[C@H](CCCCNC(=O)c1ccc(C(=O)NCCOCCOB2BBBBBB3BBBB3B2)cc1)NC(=O)CN1CCN(CC(=O)O)CCN(CC(=O)O)CCN(CC(=O)O)CC1)C(=O)O [gallium-67 labelled] — tissue uptake (gamma counting; mouse, ddY, male, 6 weeks old, blood; intravenous, 37 kBq, 3 h): 0.05 %ID/g
CC1(C)C(=CC=C2CCCC(C=CC3=[N+](CCCCS(=O)(=O)[O-])c4ccc(S(=O)(=O)O)cc4C3(C)C)=C2Oc2ccc(S(=O)(=O)O)cc2)N(CCCCCC(=O)NCCCC[C@H](NC(=O)[C@H](CO)NC(=O)CNC(=O)CNC(=O)CNC(=O)[C@H](Cc2ccccc2)NC(=O)[C@H](CCCNC(=N)N)NC(=O)[C@@H]2CCCN2C(=O)[C@H](CC(N)=O)NC(=O)[C@@H]2CCCN2C(=O)[C@H](CO)NC(=O)[C@@H](N)CCCCN)C(N)=O)c2ccc(S(=O)(=O)O)cc21 — half-life (serum; 37 °C): ~4.7 h
CC[C@H](C)[C@H](NC(=O)[C@H](Cc1ccccc1)NC(=O)[C@H](CCC(=O)O)NC(=O)[C@H](CCCNC(=N)N)NC(=O)[C@H](C)NC(=O)[C@H](C)NC(=O)[C@H](CCC(N)=O)NC(=O)[C@H](CCC(=O)O)NC(=O)[C@H](CCC(=O)O)NC(=O)[C@H](CC(C)C)NC(=O)[C@H](Cc1ccc(O)cc1)NC(=O)[C@H](CO)NC(=O)[C@H](CO)NC(=O)[C@@H](NC(=O)[C@H](CC(=O)O)NC(=O)[C@H](CO)NC(=O)[C@@H](NC(=O)[C@H](Cc1ccccc1)NC(=O)[C@@H](NC(=O)CNC(=O)[C@H](CCC(=O)O)NC(=O)[C@H](C)NC(=O)CCc1c[nH]cn1)[C@@H](C)O)[C@@H](C)O)C(C)C)C(=O)N[C@@H](C)C(=O)N[C@@H](Cc1c[nH]c2ccccc12)C(=O)N[C@@H](CC(C)C)C(=O)N[C@H](C(=O)N[C@@H](CCCNC(=N)N)C(=O)NCC(=O)N[C@@H](CCCNC(=N)N)C(=O)N[C@@H](CCCCNC(=O)COCCOCCNC(=O)COCCOCCNC(=O)CC[C@H](NC(=O)CCCCCCCCCCCCCCCCC(=O)O)C(=O)O)C(=O)NCC(=O)NCC(=O)N[C@@H](CO)C(=O)N[C@@H](CCCCNc1c(NCCCCCN(O)C(=O)CCC(=O)NCCCCCN(O)C(=O)CCC(=O)NCCCCCN(O)C(C)=O)c(=O)c1=O)C(=O)O)C(C)C [zirconium-89 labelled] — tissue uptake (ex vivo gamma counting; rat, muscle; subcutaneous, 3 nmol/kg, 24 h, together with: [89Zr]-labelled peptide): 0.07 %ID/g
CC(C)C[C@H](NC(=O)C[C@H](O)[C@H](CC(C)C)NC(=O)[C@H](Cc1c[nH]cn1)NC(=O)CNC(=O)[C@@H](NC(=O)[C@H](C)NC(=O)[C@H](Cc1c[nH]c2ccccc12)NC(=O)[C@H](CCC(N)=O)NC(=O)[C@@H](Cc1ccccc1)NC(=O)CCNC(=O)CCSc1nnc(NCCC(=O)NCCC(=O)NCCCC[C@H](NC(=O)N[C@@H](CCC(=O)O)C(=O)O)C(=O)O)c2c1CCC1C(CC2)C1COC(=O)NCCNC(=O)CC[C@H](C(=O)O)N1CCN(CC(=O)O)CCN(CC(=O)O)CC1)C(C)C)C(N)=O (stereo partly drawn) [gallium-68 labelled] — tissue uptake (athymic NMRI nude mouse, colon; intravenous, dose not given, 2 h, together with: bombesin 480 nmol (GRPR blocking)): 0.14 %ID/g
CCCCCCCCCC(=O)N[C@@H](Cc1c[nH]c2ccccc12)C(=O)N[C@H](CC(N)=O)C(=O)N[C@@H](CC(=O)O)C(=O)N[C@@H]1C(=O)NCC(=O)N[C@@H](CCCNC(=O)CCC(=O)N2Cc3ccccc3-c3c(nnn3CCC[C@H](NC(=O)CCCCC[N+]3=C(C=CC4=CC(=CC=C5N(C)c6ccccc6C5(C)C)CCC4)C(C)(C)c4ccccc43)C(=O)NCCCCNC(=O)OC(C)(C)C)-c3ccccc32)C(=O)N[C@@H](CC(=O)O)C(=O)N[C@H](C)C(=O)N[C@@H](CC(=O)O)C(=O)NCC(=O)N[C@H](CO)C(=O)N[C@@H]([C@H](C)CC(=O)O)C(=O)N[C@@H](CC(=O)c2ccccc2N)C(=O)O[C@@H]1C — half-life (human plasma; 1 µM, up to 240 min, pH 7.4, 37 °C): > 4 h
COc1cccc2c1C(=O)c1c(O)c3c(c(O)c1C2=O)C[C@@](O)(C(=O)CO)C[C@@H]3O[C@H]1C[C@H](NC(=O)[C@@H]2CCCN2C(=O)CNC(=O)[C@H](CC(C)C)NC(=O)[C@H](C)NC(=O)CP(=O)(O)O)[C@H](O)[C@H](C)O1 — Cmax (healthy mice, plasma; intravenous, 849.5 mg/kg, extrapolated to time zero): 6120 µM
N=C(N)NCCC[C@@H]1NC(=O)[C@H](CCCCNC(=O)c2ccc(CNC34CNCCNCC(N)(CNCCNC3)CNCCNC4)cc2)NC(=O)[C@@H](Cc2ccc(O)cc2)NC(=O)[C@H](CC(=O)O)NC(=O)CNC1=O [copper-64 labelled] — tissue uptake (ex vivo biodistribution; male athymic nude mouse, PC-3 tumour, spleen; 7.4 MBq, 48 h): 1.93 ± 0.33 %ID/g
C[C@@H](O)[C@@H](CO)NC(=O)[C@@H](CCCNC(=N)N)NC(=O)[C@@H]1CCCN1C(=O)[C@@H]1CSSC[C@H](NC(=O)[C@H](Cc2ccccc2)NC(=O)CN2CCN(CC(=O)O)CCN(CC(=O)O)CCN(CC(=O)O)CC2)C(=O)N[C@@H](Cc2ccc(O)cc2)C(=O)N[C@@H](Cc2ccccc2)C(=O)N[C@@H](CCC(N)=O)C(=O)N[C@@H](CC(N)=O)C(=O)N1 [gallium-68 labelled] — tissue uptake (Wistar rat, healthy, Pituitary gland; intravenous, 8 MBq, 30 min, mean): 0.51 %ID/g
Cc1ccccc1NC(=O)Nc1ccc(CC(=O)N[C@@H](CCCCNC(=O)/C=C/c2cccnc2)C(=O)N[C@@H](CCCC(=O)O)C(=O)NC2(C(=O)NCCOCCOCCOCCOCC(=O)N[C@@H](CCCCNC(=S)Nc3ccc(CCCN(CCN4CCN(CP(=O)(O)O)CCN(CP(=O)(O)O)CC4)CC(=O)O)cc3)C(N)=O)CCCCC2)cc1 [gallium-68 labelled] — dissociation (human serum; 2 h, 37 °C, 68Ga-labelled): < 5%

Excerpt of the above:
CCCCCCCCCC(=O)N[C@@H](Cc1c[nH]c2ccccc12)C(=O)N[C@H](CC(N)=O)C(=O)N[C@@H](CC(=O)O)C(=O)N[C@@H]1C(=O)NCC(=O)N[C@@H](CCCNC(=O)CCC(=O)N2Cc3ccccc3-c3c(nnn3CCC[C@H](NC(=O)CCCCC[N+]3=C(C=CC4=CC(=CC=C5N(C)c6ccccc6C5(C)C)CCC4)C(C)(C)c4ccccc43)C(=O)NCCCCNC(=O)OC(C)(C)C)-c3ccccc32)C(=O)N[C@@H](CC(=O)O)C(=O)N[C@H](C)C(=O)N[C@@H](CC(=O)O)C(=O)NCC(=O)N[C@H](CO)C(=O)N[C@@H]([C@H](C)CC(=O)O)C(=O)N[C@@H](CC(=O)c2ccccc2N)C(=O)O[C@@H]1C — half-life (human plasma; 1 µM, up to 240 min, pH 7.4, 37 °C): > 4 h
